Assay results of several laboratories.
Every numbered part comes from another study and shows a few of its results, in no order.

Set 1
Target: Ras GTPase-activating protein-binding protein 1, RRM domain (G3BP1, Homo sapiens, UniProt Q13283)
Chain of UniProt Q13283 (whole entry, looked up): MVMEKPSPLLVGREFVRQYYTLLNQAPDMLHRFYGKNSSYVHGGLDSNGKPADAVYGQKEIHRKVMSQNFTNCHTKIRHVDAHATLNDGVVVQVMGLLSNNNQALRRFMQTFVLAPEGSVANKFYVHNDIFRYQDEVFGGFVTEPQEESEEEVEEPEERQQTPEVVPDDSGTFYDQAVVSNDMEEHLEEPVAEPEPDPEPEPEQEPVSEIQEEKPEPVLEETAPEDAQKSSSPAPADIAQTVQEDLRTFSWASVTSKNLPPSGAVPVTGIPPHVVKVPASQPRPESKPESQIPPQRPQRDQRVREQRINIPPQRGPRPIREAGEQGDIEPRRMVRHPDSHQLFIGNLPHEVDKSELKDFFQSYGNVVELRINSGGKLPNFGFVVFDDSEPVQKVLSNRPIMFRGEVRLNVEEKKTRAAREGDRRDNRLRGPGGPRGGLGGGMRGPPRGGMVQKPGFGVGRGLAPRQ
Method: RNA Bind-n-Seq
Form: RNA
Sample: in vitro
Tested at: 1 µM
Notes: whole 134-nt RNA, ends assumed
With: 150 mM KCl
Relative to: input library
Direction: higher = stronger binding
Constant ends, left off below: GGGAGUUCUACAGUCCGACGAUC … UGGAAUUCUCGGGUGUCAAGG
Sequence	log2 enrichment
CCUGUGCUACACAUCGUAUGUACCGAAUCGGGGAAAAAAAGGGGUUUUUGGGGUUUGGGGAAAGUAUUAUGUUACGCCGUUCGGAUCUGC	0.835
GCAGGAAGUAAAAACAAAAAAAAAUGCUUCGGAUAGUGGCAGGGGUGGGGGUUGCUAAGGAAAGGGUGGGAUGGGAGUGGGUAAAGAGUU	1.28
GUCCUGUGCUACACAUCGUAUGUACCGAAUCAAAUUUUUAAACCCAAAUUUUUUUAAAAAAGUAUUAUGUUACGCCGUUCGGAUCUGCAC	-0.597
UGGGAGGUGGAUUUUGUUUAUUUUUUUAGCUCAUUUCCAGGGGUGGGAAUUCUUUUUUAAUAUGUGUCAUGAAUAAAGUUGUUUUUGAAA	2.32
CUGUGCUACACAUCGUAUGUACCGAAUCGGUUUUUUUGGGGUUUUUUUGGGGUUUUUUUGGGAAAGUAUUAUGUUACGCCGUUCGGAUCU	-0.219
UCCUGUGCUACACAUCGUAUGUACCGAAUCGGGAAAGGGUUUUUUUGGGUUUUUUUGGGAAAGUAUUAUGUUACGCCGUUCGGAUCUGCA	-0.0611
GUCCUGUGCUACACAUCGUAUGUACCGAAUCGGGGUGGGGAAAGGGGUUUUUUUGGGGAAAGUAUUAUGUUACGCCGUUCGGAUCUGCAC	1.08
AGUCCUGUGCUACACAUCGUAUGUACCGAAUCGGUUUUGGGGUUUUGGGGUUUUGGGAAAGUAUUAUGUUACGCCGUUCGGAUCUGCACU	-0.121
CUCAGCAGACCCUGAAGGACACUUUGAGACACCAAUCUGGAUUGAGCGGGUGGUGAUAAUAGGGGCUGGAAAGCCAGCAGCUGUGGUACU	-0.033
CAAGUCCUGUGCUACACAUCGUAUGUACCGAAUCGGGAAAGGAAAGGGAAAGGGGAAAGUAUUAUGUUACGCCGUUCGGAUCUGCACUUC	-0.0313

Set 2
Target: Phosphate system positive regulatory protein PHO4, full length, GST-tagged (PHO4, Saccharomyces cerevisiae, UniProt P07270, residues 1-312)
Method: competition protein-binding microarray
Form: double-stranded DNA, one strand shown
Sample: in vitro
Tested at: 2 µM
Notes: whole 60-bp probe, lowest competitor level
With: Cbf1 competitor, 0.05 µM
Direction: higher = stronger binding
Constant ends, left off below: … GTCTTGATTCGCTTGACGCTGCTG
Residues (chain): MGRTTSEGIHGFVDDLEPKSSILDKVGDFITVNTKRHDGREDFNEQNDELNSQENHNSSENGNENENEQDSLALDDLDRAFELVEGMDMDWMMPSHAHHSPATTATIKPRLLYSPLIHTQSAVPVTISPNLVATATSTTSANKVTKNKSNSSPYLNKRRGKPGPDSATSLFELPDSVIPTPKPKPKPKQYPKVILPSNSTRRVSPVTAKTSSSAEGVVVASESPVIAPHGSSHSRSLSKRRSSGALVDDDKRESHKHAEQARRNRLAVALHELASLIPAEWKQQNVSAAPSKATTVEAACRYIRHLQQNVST
Sequence	fluorescence intensity [a.u.]
GAAAGCATATCATATCACATGTACAGATTGAGCATA	8590
TAGGAACTCCTTTGCTGCGTGGCCGATTCCTCTGTA	6250
CTTCTGTAAATTTGATAAGTGGGTGGACGCGCCCCG	4130
TTGGAAGAGAACCGTCACGTAGGGATGATTTAGAAT	5480
TGCATTCAAAACATCAACGTGGCCGTCCCATAAGGC	15500
GTCTCTCGTCCCATGCTCGTGCGATTTGTGCATTCA	10600
CTTTCCCGATCTTGATCGGTGGGTGTAGCACATTTG	3700
GCTATACGACAGCTGCATGATCAAGTGCCGCTTGTC	4600
TATCGGTGGGCATTGTACCTGATCTTGCTAGACAAA	3010
ATGGTTAACAGTAATCTCGTGCTGTCAAACATAAAA	9410
GGGTACCCAATTCGTCACGTTTCACGAATTCTCGGG	11400
CTAACGAAGGTTTGTCACCACACTTACAAGCCAAGT	4650
GCTTCGATGTTTCCTCACGTTGTGATGTTACTTCAG	9330
GGAGCAGGCTCAGAGAATGTGACGAAATTCGCTTTA	4400
AACGATATTTCAGATCAGGTGACGGTTGCTGGTTCA	3470
AACACTCGAGTTACTTCCGTGATGGTTTAATGGTCA	3720
AAATTACTAAGTTGTTTCGTGGGTGACGCCGTATGA	4560
GTCTTGTCTCATTTTCACGTGCGATTCCCCACTTCA	12200
CCCTGATTAACTCACCACGTGCTTTCAAGGTCGTTA	18000

Set 3
Target: PABPC1L2, full length, GST fusion (mouse, UniProt A0ABA7IW68)
Method: RNAcompete
Form: RNA
Sample: in vitro
Tested at: 20 nM
Notes: 7-mer, probes averaged, single round
Relative to: mean of 7-mers
Direction: higher = stronger binding
Target sequence (chain): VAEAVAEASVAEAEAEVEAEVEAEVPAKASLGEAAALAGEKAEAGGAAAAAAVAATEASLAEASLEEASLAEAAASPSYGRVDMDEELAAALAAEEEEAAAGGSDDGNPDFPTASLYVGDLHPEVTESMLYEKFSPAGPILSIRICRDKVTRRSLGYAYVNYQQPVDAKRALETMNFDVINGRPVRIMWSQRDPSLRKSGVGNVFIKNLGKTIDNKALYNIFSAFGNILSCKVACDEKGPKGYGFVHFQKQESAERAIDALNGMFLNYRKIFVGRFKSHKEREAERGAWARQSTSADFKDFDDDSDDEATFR
Sequence	7-mer Z-score
AGCUGGU	-0.0863
GAGUCCA	-0.141
GAGGACU	0.0587
UUGGCGG	0.00436
ACAGAAG	0.144
GAGACUG	-0.0935
AGCUCGU	-0.338
UCGCACU	-0.217
CUGGCAG	-0.126
GGGAGGU	0.26
AAUGGUG	0.142
GAGCGGA	0.164
ACUUAUA	0.0424
AUUCCUG	-0.157
UUGCGAC	-0.106
CCAGAUU	-0.278
GUGCGGU	-0.0156
CUAAGUA	-0.177
AGGACGA	0.209
UGGAUUC	-0.17

Set 4
Target: Histone acetyltransferase KAT6A, winged helix 1, GST fusion (KAT6A, Homo sapiens, UniProt Q92794, residues 1-85)
Method: protein binding microarray
Form: double-stranded DNA, one strand shown
Sample: in vitro
Tested at: not given
Notes: 8-mer, flanks averaged, mean of 2 arrays, mostly near background
Relative to: not given
Direction: higher = stronger binding
Target sequence (chain): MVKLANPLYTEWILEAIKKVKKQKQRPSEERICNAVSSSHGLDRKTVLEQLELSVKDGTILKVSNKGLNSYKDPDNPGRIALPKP
Sequence	E-score
AGGGGGGC	-0.119
CTACGTAC	-0.0407
AAGCGATC	0.105
CAAAAGAG	-0.0632
GGACGTTA	0.0422
ATGAGATC	-0.183
CCTAGCAC	-0.0812
GTTGAGCA	-0.184
GGGACCTA	0.151
CTCTATTA	-0.2
ACGATGAA	-0.108
AGGCGGGA	0.293
CCCGACTA	0.159
AAGATAAT	-0.0345
ACACCGGG	0.321
AGTAGATG	-0.108
CTGGGCTC	-0.293
AGTTCCCA	-0.0499

Set 5
Target: RING finger protein unkempt homolog, zinc fingers 1-6, GST-SBP tag (UNK, Homo sapiens, UniProt Q9C0B0, residues 30-357)
Chain of UniProt Q9C0B0 (30-357, looked up): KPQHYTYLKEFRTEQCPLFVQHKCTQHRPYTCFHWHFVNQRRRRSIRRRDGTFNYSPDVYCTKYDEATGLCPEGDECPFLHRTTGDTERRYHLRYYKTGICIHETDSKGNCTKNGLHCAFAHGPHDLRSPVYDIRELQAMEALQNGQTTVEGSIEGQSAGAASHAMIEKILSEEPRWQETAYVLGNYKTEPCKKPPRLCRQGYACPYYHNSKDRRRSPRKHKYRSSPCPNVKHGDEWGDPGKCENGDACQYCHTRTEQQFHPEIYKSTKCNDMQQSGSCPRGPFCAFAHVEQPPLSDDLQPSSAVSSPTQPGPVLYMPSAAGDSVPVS
Method: RNA Bind-n-Seq
Form: RNA
Sample: in vitro
Tested at: not given
Notes: RNA with constant flanks, ends assumed
Relative to: input RNA pool
Direction: higher = stronger binding
Constant ends, left off below: GGGAGUUCUACAGUCCGACGAUC … CAACAGAGGAUUGAGCAUCA
Sequence	bound/input enrichment [ratio]
GUUUUCAUGCCCGGCCUUUGUUCCCCCCGUCCAUGUGUCCUUUAGUUUCAAACAGAUCUUUACCGUUUGUGCUUCAUAAGCCAAUUCUUAUUAUGAUUUUGGGGGACUGUUCUUCAAAGA	0.283
UUUGGAUCUCGCUUACAAGAAACCUUUUCGUUGGACCUUCUCAAAACUGCAUUUAUCAACCGCUGCUACAUCAAAAGCGAAGAGGCGAAACGUCAGAGCCUUGGCAUAGAGAAAGAAGCU	0.644
GCAUUUGAAAGCUCAUGACAGAGCUAAAGAUCUGCCCCCCCUUCUCUCCCCUAUUUCUUUCCGGUGCCAUCUCAGUCUAAUCAUGGGUAUAAAUUCACCUUGGCCAGAGAAACUCACUAA	0.548
UGCACAGGCCUCACAGUGCGUCUGGCCGGCGCUUUAUAGCUGCAGCCUGGGCGGCUCCGCCCGCUGUUUUUCGUCUUCCCUAGGCUAUUUCUGCCGGGCGCUCCGCGAAGAUGCAGCUCA	0.124
UAGUGUUUGCUUUGUGAACAUGUGUAUUGUAUAUAUUCUGUAUAGUUAUAUUGUACUGAAAUCCGCUUGUUUGAUAUAAGGAAAAUAUGUAUUGAGUACCUUUUUGCUAGCCUGAUUGUU	3.68
CCUCACCAAAAGGUUUCGGGAACUGGAGGAAGUAUUAAUGUACAACUCACCACUUCAUGCCACCGGAGGCUGAAGUUGACGUUGCCUUUUAAGCCUUUUACAUACACUGGUCAGUUCGGA	0.262
ACUGAGCCAUUUCCUAUUUUAAAUGGCUUCUAUAGAAAAUUAACAACUCAGUUAUUAAACCCGCAGGAUCCUACAAUGAUACAUCUAGUGAAAGUAGACUUAGUUAACUUAUUUAUUUCU	62.1
